Measurements pooled from the literature.
Each line is one published result; not all experiments were run side by side. Several values in a cell are separate wells, animals, samples, runs or records. Numbers after ± are the reported error.
Chain of UniProt P05177 (whole entry, looked up): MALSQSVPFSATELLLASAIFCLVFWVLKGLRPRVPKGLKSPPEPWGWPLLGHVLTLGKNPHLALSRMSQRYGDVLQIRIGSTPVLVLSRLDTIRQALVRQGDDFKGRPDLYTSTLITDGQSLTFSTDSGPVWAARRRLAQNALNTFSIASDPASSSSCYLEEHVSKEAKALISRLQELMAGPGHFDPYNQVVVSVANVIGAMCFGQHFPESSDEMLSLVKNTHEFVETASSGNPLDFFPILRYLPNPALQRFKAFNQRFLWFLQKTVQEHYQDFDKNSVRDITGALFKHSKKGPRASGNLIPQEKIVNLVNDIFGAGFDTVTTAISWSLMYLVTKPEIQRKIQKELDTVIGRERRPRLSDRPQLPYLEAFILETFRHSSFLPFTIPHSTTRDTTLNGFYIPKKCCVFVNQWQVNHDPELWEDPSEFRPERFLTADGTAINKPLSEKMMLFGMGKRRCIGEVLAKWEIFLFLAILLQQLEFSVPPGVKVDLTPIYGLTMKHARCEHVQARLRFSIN
Chain of UniProt P02769 (whole entry, looked up): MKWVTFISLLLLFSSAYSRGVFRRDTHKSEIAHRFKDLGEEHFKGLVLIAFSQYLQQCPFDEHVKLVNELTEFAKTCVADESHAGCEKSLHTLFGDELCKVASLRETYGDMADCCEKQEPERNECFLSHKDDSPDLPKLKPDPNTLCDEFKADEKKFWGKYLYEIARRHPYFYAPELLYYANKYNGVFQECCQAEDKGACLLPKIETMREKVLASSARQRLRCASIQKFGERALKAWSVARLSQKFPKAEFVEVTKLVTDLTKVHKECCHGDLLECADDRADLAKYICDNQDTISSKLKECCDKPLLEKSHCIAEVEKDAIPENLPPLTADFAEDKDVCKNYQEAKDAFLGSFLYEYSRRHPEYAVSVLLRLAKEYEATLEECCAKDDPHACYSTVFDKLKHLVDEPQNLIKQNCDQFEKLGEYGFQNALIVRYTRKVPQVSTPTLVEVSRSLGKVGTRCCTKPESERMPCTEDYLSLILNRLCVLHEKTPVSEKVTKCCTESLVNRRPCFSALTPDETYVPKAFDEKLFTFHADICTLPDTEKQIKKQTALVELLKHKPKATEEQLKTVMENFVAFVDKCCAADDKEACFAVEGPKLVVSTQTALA

Compound	target or system	assay	system	setting	how to read	endpoint	result
O=C([O-])CN1CCN(CC(=O)[O-])CCN(Cc2cccc(C(=O)[O-])n2)CC1.[18F-].[Sc+3]			mouse, blood	intravenous, 1 h		tracer uptake	0.64 %ID/g
O=C(Nc1cnccc1-c1ccc([18F])nc1)c1ccnc(NC(=O)C2CC2)c1		ex vivo gamma counting	GSK-3β transgenic mice, early-stage, brain stem	intravenous, 120 min		mean SUV	0.024
Nc1nc(-c2ccc(OC(F)(F)F)cc2)nc2[nH]nc(Nc3ccc(Cl)cc3)c12	HeLa Ohio			72 h		CC50	10.2 µM
Nc1nc2cc(C(=O)c3ccc(F)cc3)ccc2[nH]1	Salmonella typhimurium	Ames preincubation test	TA100	9.8 µg per plate, 3 days, without S9		revertants	125 revertants per plate
CCN(CC)CC#CCNc1ccnc2cc(Cl)ccc12	Salmonella typhimurium	mini-Ames test	TA98	125.0 µg/well, without S9		revertants	9 revertants/well and 3 revertants/well
CCc1ccc(-c2nc(N)c3c(Nc4ccccc4)n[nH]c3n2)cc1	HeLa Ohio			72 h		CC50	> 151 µM
CN(Cc1ccccc1)C(=O)CN1CCN(CC(=O)[O-])CCN(CC(=O)[O-])CC1.[44Sc+3]			BALB/c mouse, urine	intravenous, 1 h		uptake	356 ± 248 %ID/g
Oc1nc(-c2ccccc2)nc2[nH]nc(Nc3cccc(F)c3)c12	HeLa Ohio			72 h		CC50	> 156 µM
CN1CCN(c2ccc3[nH]c(-c4ccc5[nH]c(-c6ccc(OCCCCNC(=O)c7cccc8c7C(=O)OC87c8ccc(N(C)C)cc8[Si](C)(C)c8cc(N(C)C)ccc87)cc6)nc5c4)nc3c2)CC1	Albumin (ALB, Bos taurus, UniProt P02769)	binding, fluorescence titration	PBS	1 h		Kd	557 ± 520 µM
CC(C)Cc1ccc(C(C)C(=O)N[C@@H](CCCCNC(=O)CCOCCOCCOCCOCCOCCOCCNC(=O)CN2CCN(CC(=O)[O-])CCN(CC(=O)[O-])CCN(CC(=O)[O-])CC2)C(=O)Nc2cccc3c(C(=O)NCC(=O)N4CC(F)(F)C[C@H]4C#N)ccnc23)cc1.[177Lu+3] (stereo partly drawn)	U-87 MG tumour model		host not given, liver	1 h, tumour-bearing		tracer uptake	8.67 %ID/g
CNC(=O)C1CCCN(C(=O)C2CC3CCC2N3C(=O)[C@@H]2C[C@@H](O)CN2C(=O)NCc2cccc(Cl)c2F)C1 (mixture of isomers)	Cytochrome P450 1A2 (CYP1A2, Homo sapiens, UniProt P05177)	preincubation without NADPH	human	0.206 µM	baseline: negative control	remaining activity	90.5% and 92.8%
O=C1C2CC3CC1CC(C(=O)N1CCN(c4ccc([N+](=O)[O-])c5ncccc45)CC1)(C3)C2	Salmonella typhimurium	Ames test	TA1535	0.13 µg/well, with S9 activation		revertant colony count	1 colonies/well
Cc1ccc(Nc2n[nH]c3nc(-c4ccccc4)nc(N)c23)cc1	HeLa Ohio			72 h		CC50	> 158 µM
CN(Cc1ccccc1)C(=O)CN1CCN(CC(=O)[O-])CCN(Cc2cccc(C(=O)[O-])n2)CC1.[44Sc+3]			mouse, kidney	intravenous, 1 h		tracer uptake	2.85 %ID/g
COc1cccc(OC)c1-c1cc(C(=O)NC2(C(=O)O)C3CC4CC(C3)CC2C4)nn1-c1ccc(C(=O)N(C)CCOCCOCCN(C)C(=O)[C@H](CCCCNC(=O)[C@H](CC(C)C)NC(=O)C2OC2C(=O)O)NC(=O)CN2CCN(CC(=O)[O-])CCN(CC(=O)[O-])CCN(CC(=O)[O-])CC2)cc1C(C)C.[177Lu+3] (mixture of isomers)	HT-29 tumour model		host not given, blood	7 days, tumour-bearing		tracer uptake	0.28 %ID/g
N#C[C@@H]1CC(F)(F)CN1C(=O)CNC(=O)c1ccnc2c(NC(=O)[C@H](CCCCNC(=O)CCOCCOCCOCCOCCOCCOCCNC(=O)CN3CCN(CC(=O)[O-])CCN(CC(=O)[O-])CCN(CC(=O)[O-])CC3)NC(=O)CCCc3ccc(I)cc3)cccc12.[177Lu+3]	U-87 MG tumour model		host not given, pancreas	48 h, tumour-bearing		tracer uptake	0.27 %ID/g
C=C(NC(=O)c1csc(-c2nc3c(cc2O)-c2nc(cs2)C(=O)NC(C(C)O)C(=O)NC(=C(C)OC)c2nc(cs2)C(=O)NC2c4nc(cs4)C(=O)NC(COC(=O)c4c5c6c(cccc6n4O)COC(=O)C(OC4CC(C)(O)C(N(C)C)C(C)O4)C2OC5)c2nc-3cs2)n1)C(N)=O (stereo not drawn)			Sprague-Dawley rats, female, plasma	intravenous infusion, 6 mg/kg, day 1, multiple dosing		AUC(0-t)	2050 ng·h/mL
CC(C)OCCOCc1ccc(OCC(O)CN(N=O)C(C)C)cc1 (stereo not drawn)	Salmonella typhimurium	Ames test	TA1537	158 µg/plate, 30 % rat S9	baseline: solvent control	revertant fold increase	0.8 fold
N#C[C@@H]1CC(F)(F)CN1C(=O)CNC(=O)c1ccnc2c(NC(=O)CCOCCOCCOCCOCCOCCOCCNC(=O)[C@H](CCCCNC(=O)CN3CCN(CC(=O)[O-])CCN(CC(=O)[O-])CCN(CC(=O)[O-])CC3)NC(=O)CCCc3ccc(I)cc3)cccc12.[177Lu+3]	U-87 MG tumour model		host not given, blood	4 h, tumour-bearing		tracer uptake	2.71 %ID/g
O=C1NC2(CC2)COc2ncc(F)cc2[C@H]2COCCN2c2ccn3ncc1c3n2	Salmonella typhimurium	Ames test	TA102	5000 µg/plate, 48 h, with: without S9		revertant colonies	395 ± 9 revertants/plate
Nc1nc(-c2ccccc2)nc2[nH]nc(Nc3cccc(C(F)(F)F)c3)c12	HeLa Ohio			72 h		CC50	32.4 µM
CN(Cc1ccccc1)C(=O)CN1CCN(CC(=O)[O-])CCN(CC(=O)N(C)Cc2ccccc2)CC1.[18F-].[Sc+3]			mouse, lung	intravenous, 1 h		tracer uptake	0.18 %ID/g
COc1cccc(OC)c1-c1cc(C(=O)NC2(C(=O)O)C3CC4CC(C3)CC2C4)nn1-c1ccc(C(=O)NCCNC(=O)[C@H](CCCCNC(=O)[C@H](CC(C)C)NC(=O)C2OC2C(=O)O)NC(=O)CN2CCN(CC(=O)[O-])CCN(CC(=O)[O-])CCN(CC(=O)[O-])CC2)cc1C(C)C.[177Lu+3] (mixture of isomers)	HT-29 tumour model		host not given, stomach	24 h, tumour-bearing		tracer uptake	0.2 %ID/g
N#C[C@@H]1CCCN1C(=O)CNC(=O)c1ccnc2ccc(OCCCN3CCN(C(=O)CCc4ccc(O)c(CN5CCN6CC(=O)[O][Al-]([18F])([O]C(=O)C5)[O]c5ccc(CCC(=O)N7CCN(CCCOc8ccc9nccc(C(=O)NCC(=O)N%10CCC[C@H]%10C#N)c9c8)CC7)cc5C6)c4)CC3)cc12 (stereo partly drawn)	U-87 MG tumour model		host not given, blood	1 h, tumour-bearing		tracer uptake	6.75 %ID/g
Nc1nc(-c2cccc(OC(F)(F)F)c2)nc2[nH]nc(Nc3ccc(C(F)(F)F)cc3)c12	HeLa Ohio			72 h		CC50	7.9 µM
COc1cccc(OC)c1-c1cc(C(=O)NC2(C(=O)O)C3CC4CC(C3)CC2C4)nn1-c1ccc(C(=O)N(C)CCCN(C)CCCN(C)C(=O)[C@H](CCCCNC(=O)[C@H](CC(C)C)NC(=O)C2OC2C(=O)O)NC(=O)CN2CCN(CC(=O)[O-])CCN(CC(=O)[O-])CCN(CC(=O)[O-])CC2)cc1C(C)C.[177Lu+3] (mixture of isomers)	HT-29 tumour model		host not given, pancreas	72 h, tumour-bearing		tracer uptake	0.2 %ID/g
Nc1ncnc2[nH]nc(Nc3ccc(F)c(F)c3)c12	HeLa Ohio			72 h		CC50	> 191 µM
N#C[C@@H]1CC(F)(F)CN1C(=O)CNC(=O)c1ccnc2c(NC(=O)[C@@H](N)CCCCNC(=O)CCOCCOCCOCCOCCOCCOCCNC(=O)CN3CCN(CC(=O)[O-])CCN(CC(=O)[O-])CCN(CC(=O)[O-])CC3)cccc12.[177Lu+3]	U-87 MG tumour model		host not given, heart	24 h, tumour-bearing		tracer uptake	0.02 %ID/g
Cc1ccc(Nc2n[nH]c3nc(-c4ccncc4)nc(N)c23)cc1	HeLa Ohio			72 h		CC50	> 158 µM
OC(Cc1cc(-c2ccc(C(O)C(F)(F)F)s2)sc1-c1ccc(-c2sc(-c3ccc(C(O)C(F)(F)F)s3)cc2CC(O)C(F)(F)F)s1)C(F)(F)F (stereo not drawn)	primary human fetal neurons	LC-MS/MS		4 µM, 60 min, replicate 1		amount in extracellular wash	0.1 nmol and 0.13 nmol
